Experimental data pooled from the literature.
Lines come from different studies, so protocols differ. Numbers after ± are the reported error.
CNR1: Cannabinoid receptor 1 (CNR1, Homo sapiens, UniProt P21554)
Chain of UniProt P21554 (whole entry, looked up): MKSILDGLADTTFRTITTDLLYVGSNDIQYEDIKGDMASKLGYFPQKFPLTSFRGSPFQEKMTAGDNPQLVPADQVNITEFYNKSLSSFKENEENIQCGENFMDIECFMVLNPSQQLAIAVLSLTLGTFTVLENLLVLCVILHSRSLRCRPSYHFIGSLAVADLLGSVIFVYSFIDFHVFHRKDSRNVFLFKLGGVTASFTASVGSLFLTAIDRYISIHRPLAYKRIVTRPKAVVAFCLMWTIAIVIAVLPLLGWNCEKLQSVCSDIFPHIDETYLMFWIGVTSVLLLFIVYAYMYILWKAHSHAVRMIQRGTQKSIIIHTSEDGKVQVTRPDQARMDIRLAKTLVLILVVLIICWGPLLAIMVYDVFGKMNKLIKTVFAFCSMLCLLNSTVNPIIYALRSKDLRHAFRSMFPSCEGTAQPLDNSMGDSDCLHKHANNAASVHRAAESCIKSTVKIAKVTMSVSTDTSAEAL
Gabrg2/Gabra3 with β3 subunit: Gabrg2/Gabra3, with β3 subunit (Rattus norvegicus, UniProt P18508+P20236)
Chain of UniProt P18508 (whole entry, looked up): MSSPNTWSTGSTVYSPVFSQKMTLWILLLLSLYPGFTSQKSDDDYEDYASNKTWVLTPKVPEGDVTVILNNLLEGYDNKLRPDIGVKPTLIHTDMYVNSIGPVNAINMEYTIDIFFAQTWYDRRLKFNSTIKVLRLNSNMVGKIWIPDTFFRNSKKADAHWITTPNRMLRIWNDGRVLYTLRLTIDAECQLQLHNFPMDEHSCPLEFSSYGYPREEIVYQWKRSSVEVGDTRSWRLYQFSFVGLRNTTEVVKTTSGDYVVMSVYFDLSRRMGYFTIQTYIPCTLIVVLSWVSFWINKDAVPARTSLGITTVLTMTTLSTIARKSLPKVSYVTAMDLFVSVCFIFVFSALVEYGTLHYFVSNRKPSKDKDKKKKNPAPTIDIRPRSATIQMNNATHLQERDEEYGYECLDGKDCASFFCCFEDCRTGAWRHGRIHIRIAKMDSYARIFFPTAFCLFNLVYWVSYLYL
Chain of UniProt P20236 (whole entry, looked up): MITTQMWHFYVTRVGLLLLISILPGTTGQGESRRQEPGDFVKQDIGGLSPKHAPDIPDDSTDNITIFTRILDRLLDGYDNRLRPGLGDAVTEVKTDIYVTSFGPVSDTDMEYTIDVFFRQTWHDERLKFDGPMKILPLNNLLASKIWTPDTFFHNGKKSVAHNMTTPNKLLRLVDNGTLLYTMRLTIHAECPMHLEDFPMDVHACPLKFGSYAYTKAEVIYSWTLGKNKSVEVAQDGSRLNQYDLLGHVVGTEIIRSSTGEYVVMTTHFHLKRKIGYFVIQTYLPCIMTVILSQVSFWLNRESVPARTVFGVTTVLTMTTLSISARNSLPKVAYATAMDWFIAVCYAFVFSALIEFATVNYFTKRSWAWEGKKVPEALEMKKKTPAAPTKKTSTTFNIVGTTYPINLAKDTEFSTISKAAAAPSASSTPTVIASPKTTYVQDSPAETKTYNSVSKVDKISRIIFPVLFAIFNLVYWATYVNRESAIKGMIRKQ
Chain of UniProt P62813 (whole entry, looked up): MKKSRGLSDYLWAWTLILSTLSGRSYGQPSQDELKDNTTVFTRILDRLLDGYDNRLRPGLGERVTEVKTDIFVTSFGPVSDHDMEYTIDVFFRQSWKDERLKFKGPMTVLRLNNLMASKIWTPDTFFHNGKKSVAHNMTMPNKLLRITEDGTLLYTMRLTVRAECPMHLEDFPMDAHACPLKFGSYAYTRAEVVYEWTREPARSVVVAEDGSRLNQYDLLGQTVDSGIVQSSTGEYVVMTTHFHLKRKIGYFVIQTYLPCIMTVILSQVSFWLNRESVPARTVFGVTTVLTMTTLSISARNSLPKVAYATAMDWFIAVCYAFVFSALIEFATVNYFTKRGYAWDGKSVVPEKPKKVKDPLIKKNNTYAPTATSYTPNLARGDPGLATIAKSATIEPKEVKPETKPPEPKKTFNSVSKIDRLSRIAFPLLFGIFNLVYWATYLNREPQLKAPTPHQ
Chain of UniProt P28335 (whole entry, looked up): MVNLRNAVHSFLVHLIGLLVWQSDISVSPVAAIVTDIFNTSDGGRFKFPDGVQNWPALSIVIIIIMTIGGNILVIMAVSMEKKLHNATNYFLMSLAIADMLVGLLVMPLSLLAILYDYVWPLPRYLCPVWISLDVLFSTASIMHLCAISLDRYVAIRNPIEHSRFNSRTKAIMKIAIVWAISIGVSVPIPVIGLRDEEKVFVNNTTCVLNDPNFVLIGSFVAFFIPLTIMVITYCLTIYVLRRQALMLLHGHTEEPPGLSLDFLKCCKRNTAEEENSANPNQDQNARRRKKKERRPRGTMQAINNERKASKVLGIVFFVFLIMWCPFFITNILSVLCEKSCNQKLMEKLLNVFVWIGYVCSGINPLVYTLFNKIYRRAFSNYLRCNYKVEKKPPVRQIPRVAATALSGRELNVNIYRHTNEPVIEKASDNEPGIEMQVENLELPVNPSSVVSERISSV
Chain of UniProt Q923Y8 (whole entry, unmodified, looked up): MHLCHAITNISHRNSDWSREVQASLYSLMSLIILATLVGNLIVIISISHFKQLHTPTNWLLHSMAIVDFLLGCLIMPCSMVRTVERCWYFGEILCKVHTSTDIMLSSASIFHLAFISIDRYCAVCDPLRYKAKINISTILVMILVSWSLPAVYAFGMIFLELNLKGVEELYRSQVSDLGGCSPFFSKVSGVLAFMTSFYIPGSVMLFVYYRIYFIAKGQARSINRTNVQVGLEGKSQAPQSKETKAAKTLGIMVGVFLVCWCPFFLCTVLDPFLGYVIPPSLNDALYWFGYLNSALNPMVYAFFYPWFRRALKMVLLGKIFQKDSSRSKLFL

With `C[C@H]1CNCCc2ccc(Cl)cc21` the Emax was 98% (5-hydroxytryptamine receptor 2C (HTR2C, Homo sapiens, UniProt P28335); calcium flux, agonist, FLIPR; HEK293 expressing receptor).
`CNC(=O)[C@@H](NC(=O)c1nn(Cc2ccc(F)cc2)c2ccccc12)C(C)C` has an Emax of 120 ± 1% (CNR1; calcium mobilization, agonist; CHO-K1 expressing Gαq16; reference: CP55,940 maximum).
`CN[C@@](C)(C[18F])C(=O)O` gave a tracer uptake of 2.9 %ID/g (DU-145 tumour model; host not given, heart; 30 min, tumour-bearing).
With `COC(=O)[C@@H](NC(=O)c1nn(CCCCF)c2ccccc12)C(C)(C)C` the Emax was 115 ± 2.9% (CNR1; GIRK channel response, agonist; AtT20 expressing CB1; reference: WIN 55212-2 10 µM).
`CNC(=O)C(C)(C)NC(=O)c1nn(Cc2ccc(F)cc2)c2ccccc12` has an Emax of 111 ± 2% (CNR1; calcium mobilization, agonist; CHO-K1 expressing Gαq16; reference: CP55,940 maximum).
With `CN1C(=O)CN=C(c2ccccc2)c2cc(Cl)ccc21` the Emax was 738 ± 36% (Gabrg2/Gabra3 with β3 subunit; GABA-induced chloride current, two-electrode voltage clamp; Xenopus oocytes; together with: GABA at EC3).
The Emax of `CC(C)[C@H](NC(=O)c1nn(Cc2ccc(F)cc2)c2ccccc12)C(=O)O` is reported as 123 ± 7% (CNR1; calcium mobilization, agonist; CHO-K1 expressing Gαq16; reference: CP55,940 maximum).
The Emax of `CN1CCN(C(=O)OC2c3nccnc3C(=O)N2c2ccc(Cl)cn2)CC1` (stereo not shown) is reported as 383 ± 36% (Gabrg2/Gabra1, with β3 subunit (Rattus norvegicus, UniProt P18508+P62813); GABA-induced chloride current, two-electrode voltage clamp; Xenopus oocytes; together with: GABA at EC3).
`CC(C)(NC(=O)c1nn(Cc2ccc(F)cc2)c2ccccc12)C(=O)Nc1cccc(C(N)=O)c1` has an Emax of 112 ± 2% (CNR1; calcium mobilization, agonist; CHO-K1 expressing Gαq16; reference: CP55,940 maximum).
For `CN1CCCCC1Cn1cc(C(=O)C23CC4CC(CC(C4)C2)C3)c2ccccc21` (stereo not shown), the Emax was 63.5 ± 3.9% (CNR1; GIRK channel response, agonist; AtT20 expressing CB1; reference: WIN 55212-2 10 µM).
The Emax of `CN1C(=O)CN=C(c2ccccc2)c2cc(Cl)ccc21` is reported as 237% (Gabrg2/Gabra3 with β3 subunit; positive allosteric modulator, whole-cell patch clamp; HEK293; α3β3γ2 subunits, together with: GABA at EC10).
`NC(=O)[C@@H](NC(=O)c1nn(Cc2ccc(F)cc2)c2ccccc12)c1ccccc1` gave an Emax of 104 ± 3% (CNR1; calcium mobilization, agonist; CHO-K1 expressing Gαq16; reference: CP55,940 maximum).
`CCCCCn1cc(C(=O)c2cccc3ccccc23)c2ccccc21` has an Emax of 55.8 ± 6.1% (CNR1; GIRK channel response, agonist; AtT20 expressing CB1; reference: WIN 55212-2 10 µM).
With `NCCc1ccc(Oc2ccc(O)cc2)c(I)c1` the Emax was 100% (Trace amine-associated receptor 1 (Taar1, Mus musculus, UniProt Q923Y8, Y153F); cAMP accumulation, agonist, cell-based; TM4 mutant; reference: 1).
With `Cc1ccc(C(=O)c2cn(CCCCCCl)c3ccccc23)c2ccccc12` the Emax was 74 ± 3.4% (CNR1; GIRK channel response, agonist; AtT20 expressing CB1; reference: WIN 55212-2 10 µM).
The Emax of `CC1=CC[C@@H]2[C@@H](C1)c1c(O)cc(CC#CCCCNS(C)(=O)=O)cc1OC2(C)C` is reported as 37.4% (CNR1; forskolin-stimulated cAMP, agonist; CHO expressing human CB1; together with: forskolin 10 µM).
